Results collected from several papers.
Numbers after ± are the reported error.

| Structure (SMILES) | organism | test | system | conditions | EC50 |
| --- | --- | --- | --- | --- | --- |
| CC(=O)N[C@@H](CSC(=O)[C@]1([C@@H](O)C(C)C)NC(=O)[C@H](C)[C@@H]1O)C(=O)O | Mus musculus | gene silencing, high-content imaging | LDR reporter GFP cells | retest, mean of two runs | 31600 nM |
| Cc1cc(OC(C)C)ccc1C(=O)C(C)(C)NC(=O)c1sccc1C | Rhizoctonia solani | mycelial growth | PSA medium | 20 °C | > 50 µg/mL |
| Cc1cc(C)c2sc(NC(=O)c3cc4ccccc4o3)nc2n1 | West Nile virus | cytopathic effect, neutral red uptake | Vero 76, Kern 515 | – | > 32000 nM |
| CC(C)(C)c1cnc(CSc2cnc(NC(=O)C3CCNCC3)s2)o1 | Trypanosoma brucei | cell growth | – | – | 118 ± 10 nM |
| CC(C)C[C@@H](C=O)NC(=O)[C@H](CC(C)C)NC(=O)[C@H](CC(C)C)NC(=O)OCc1ccccc1 | Mus musculus | gene silencing, high-content imaging | LDR reporter GFP cells | retest, mean of two runs | 2510 nM |
| Nc1ccn(C[C@@H](CO)OCP(=O)(O)O)c(=O)n1 | Human adenovirus 2 | viral replication | HEL | – | 5800 nM |
| Cc1ccc(N(c2ccc(NC(=O)CN(C)c3ccccc3N3CCCC3=O)cc2)C(C)C)cc1 | Plasmodium falciparum | gametocyte viability, luciferase | stage II-III gametocytes | 48 h | 6 nM |
| Cc1ncc(-c2ccnc(Nc3ccc(S(C)(=O)=O)cc3)n2)n1C(C)C | Trypanosoma brucei | cell growth | – | – | 33 ± 2.7 nM |
| CN1CCN(c2ccc(-c3ccc4c(Nc5ncccn5)cnnc4c3)cc2)CC1 | Trypanosoma brucei | cell growth | – | – | 6600 nM |
| C[C@@H](Oc1cc(-c2cnn(C3CCNCC3)c2)cnc1N)c1c(Cl)ccc(F)c1Cl | Trypanosoma brucei | cell growth | – | – | 432 ± 75 nM |
| CN1CCN(c2ncc(-c3ccc4c(Nc5ncccn5)cnnc4c3)cn2)CC1 | Trypanosoma brucei | cell growth | – | – | 13000 ± 1600 nM |
| CCCCOc1c(C(=O)c2c(F)cc(C)cc2F)c[nH]c2nncc1-2 | Trypanosoma brucei | cell growth | – | – | 457 ± 163 nM |
| COc1ccc(Nc2cnnc3ccc(-c4cnc(N5CCCN(C)CC5)nc4)cc23)cc1Cl | Trypanosoma brucei | cell growth | – | – | 210 ± 20 nM |

Excerpt of the above:
| Structure (SMILES) | organism | test | system | conditions | EC50 |
| --- | --- | --- | --- | --- | --- |
| CC(=O)N[C@@H](CSC(=O)[C@]1([C@@H](O)C(C)C)NC(=O)[C@H](C)[C@@H]1O)C(=O)O | Mus musculus | gene silencing, high-content imaging | LDR reporter GFP cells | retest, mean of two runs | 31600 nM |
